# Published values gathered from unrelated publications.
# Each numbered part is a random draw from the data of one study; scales do not carry over between parts. Positions count from the first letter of the parent shown.
# UniProt P41143, sequence (whole entry, looked up): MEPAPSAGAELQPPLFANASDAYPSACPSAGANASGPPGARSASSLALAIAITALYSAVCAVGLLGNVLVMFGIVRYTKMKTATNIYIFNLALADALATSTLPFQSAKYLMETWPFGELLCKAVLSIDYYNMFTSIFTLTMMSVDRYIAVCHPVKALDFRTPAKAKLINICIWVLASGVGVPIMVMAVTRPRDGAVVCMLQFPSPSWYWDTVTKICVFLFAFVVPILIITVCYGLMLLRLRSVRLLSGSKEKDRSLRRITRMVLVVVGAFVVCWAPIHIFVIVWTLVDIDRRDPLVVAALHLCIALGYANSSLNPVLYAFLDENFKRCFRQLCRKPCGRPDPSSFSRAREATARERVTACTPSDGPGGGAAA
# UniProt P23975, sequence (whole entry, looked up): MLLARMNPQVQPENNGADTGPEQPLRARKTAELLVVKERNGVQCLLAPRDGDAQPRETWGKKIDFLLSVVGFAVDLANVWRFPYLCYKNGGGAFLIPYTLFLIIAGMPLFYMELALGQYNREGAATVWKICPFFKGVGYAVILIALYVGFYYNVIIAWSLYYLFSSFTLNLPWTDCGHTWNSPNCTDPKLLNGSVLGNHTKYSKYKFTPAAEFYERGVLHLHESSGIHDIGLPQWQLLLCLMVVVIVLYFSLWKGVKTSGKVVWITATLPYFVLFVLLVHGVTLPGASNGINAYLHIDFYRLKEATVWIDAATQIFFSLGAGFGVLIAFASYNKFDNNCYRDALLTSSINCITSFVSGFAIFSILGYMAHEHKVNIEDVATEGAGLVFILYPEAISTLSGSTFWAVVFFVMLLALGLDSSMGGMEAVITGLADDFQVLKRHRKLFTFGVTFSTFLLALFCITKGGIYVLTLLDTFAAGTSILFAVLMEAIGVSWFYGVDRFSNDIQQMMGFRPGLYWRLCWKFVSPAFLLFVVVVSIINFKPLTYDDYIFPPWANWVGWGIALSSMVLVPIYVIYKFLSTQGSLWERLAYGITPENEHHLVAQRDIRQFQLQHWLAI

# Study 1 — target: CCNB3, cyclin fold, Cln2 fusion (human); method: yeast growth competition, sequencing; medium: yeast; notes: strong parent motif; baseline: not given; reading: higher = stronger binding
# Starting sequence: viral docking peptide; CKVKRKLFGSENI; partner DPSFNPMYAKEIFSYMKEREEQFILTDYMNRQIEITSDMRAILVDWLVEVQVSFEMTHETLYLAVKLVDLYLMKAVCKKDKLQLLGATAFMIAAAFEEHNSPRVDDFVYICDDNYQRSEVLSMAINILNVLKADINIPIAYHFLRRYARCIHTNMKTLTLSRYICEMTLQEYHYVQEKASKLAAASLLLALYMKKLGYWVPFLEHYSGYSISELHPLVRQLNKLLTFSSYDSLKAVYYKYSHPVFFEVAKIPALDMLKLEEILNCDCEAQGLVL
Variant,normalised enrichment score
K2A,1.02
V3A,0.678
F8L,-0.209
L7A,0.399
C1A,1.14
K4A,0.937
R5K,0.0895
G9A,1.42

# Study 2 — effect on: binding; method: phage display NGS; form: peptide; tested at: concentration not given; baseline: input library
# Target: UDP-N-acetylglucosamine--peptide N-acetylglucosaminyltransferase 110 kDa subunit (OGT, Homo sapiens, UniProt O15294)
# UniProt O15294, sequence (whole entry, looked up): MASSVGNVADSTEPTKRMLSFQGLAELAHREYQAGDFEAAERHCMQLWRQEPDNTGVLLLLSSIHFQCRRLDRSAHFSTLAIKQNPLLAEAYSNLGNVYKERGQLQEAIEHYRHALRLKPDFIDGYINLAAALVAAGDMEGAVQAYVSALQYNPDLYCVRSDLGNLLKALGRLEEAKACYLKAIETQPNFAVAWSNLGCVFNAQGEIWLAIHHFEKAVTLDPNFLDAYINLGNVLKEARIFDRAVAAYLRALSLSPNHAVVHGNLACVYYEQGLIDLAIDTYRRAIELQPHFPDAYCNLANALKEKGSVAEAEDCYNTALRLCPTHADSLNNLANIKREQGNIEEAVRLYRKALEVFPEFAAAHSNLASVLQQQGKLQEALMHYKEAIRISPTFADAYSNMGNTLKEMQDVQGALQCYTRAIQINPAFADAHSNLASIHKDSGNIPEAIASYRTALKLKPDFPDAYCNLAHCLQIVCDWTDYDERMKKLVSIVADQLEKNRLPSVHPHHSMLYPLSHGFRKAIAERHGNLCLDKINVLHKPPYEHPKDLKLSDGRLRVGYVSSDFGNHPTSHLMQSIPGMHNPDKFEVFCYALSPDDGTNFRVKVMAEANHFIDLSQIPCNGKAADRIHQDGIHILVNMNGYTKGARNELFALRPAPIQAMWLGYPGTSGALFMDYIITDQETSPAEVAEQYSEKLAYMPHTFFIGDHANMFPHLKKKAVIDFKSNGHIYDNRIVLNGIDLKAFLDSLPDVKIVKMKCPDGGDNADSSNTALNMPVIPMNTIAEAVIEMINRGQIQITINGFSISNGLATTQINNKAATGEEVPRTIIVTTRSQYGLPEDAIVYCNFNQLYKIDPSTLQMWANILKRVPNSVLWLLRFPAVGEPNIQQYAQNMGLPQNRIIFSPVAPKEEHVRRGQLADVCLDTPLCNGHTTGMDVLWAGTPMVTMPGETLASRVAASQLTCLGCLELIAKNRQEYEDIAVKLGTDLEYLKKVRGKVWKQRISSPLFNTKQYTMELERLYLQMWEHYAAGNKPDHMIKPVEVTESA
Sequence,enrichment fold change
NFFPQYQINPWIATD,3.3
VEHRPHYHHDKQQGT,4.91
SRSHPVEQPVNFQHH,3.01
SMNLRHHDHNVHPRV,6.47
TIEHHHRTHTPMPSY,8.02
QDHTHFFHVVTNHHH,10.9
HLYTFQHHRSEWLGR,2.58
DSWFHAFAHHGHNTP,6.32

# Other studies, line by line
Compound,target,assay,test system,conditions,endpoint,result
C[C@@H]1CN(c2cc(-c3n[nH]c4ccc(OC5(C)CC5)cc34)ncn2)C[C@H](C)O1,"SLC6A2 (Homo sapiens, UniProt P23975)",ligand displacement,,10 µM,inhibition,7.45%
CCN(CC)C(=O)c1ccc(C2=CC3(CCNCC3)Oc3cccc(O)c32)cc1,"Delta-type opioid receptor, with Gz (OPRD1, Homo sapiens, UniProt P41143)",,human cells,,EC50,7.23 nM

# A few entries again (study 1):
Variant,normalised enrichment score
G9A,1.42
